Measurements pooled from the literature.
Numbered parts are unrelated; each lists some results of a single study.

Block 1
Target: Replicase polyprotein 1ab, main protease (rep, Severe acute respiratory syndrome coronavirus 2, UniProt P0DTD1)
Observed: enzyme activity
Action: inhibitor
Concentration: 20 µM
Structure (SMILES)	inhibition
CC(=O)O/N=C1/C(=O)N(Cc2cc(Cl)ccc2Cl)c2ccc(Cl)cc21	54.1%
O=C1C=CC(=O)C2=C1C1c3ccccc3C2c2ccccc21	-14.3%
O=C1/C(=C/c2ccc([N+](=O)[O-])cc2)CS(=O)(=O)C/C1=C\c1ccc([N+](=O)[O-])cc1	-14.4%
O=C1NC(=O)C(c2ccccc2)N1 (centres unmarked)	92%

Block 2
Target: Interferon regulatory factor 5, full length, phosphomimetic (IRF5, Homo sapiens, UniProt Q13568-2, residues 1-514, S451D/S453D/S456D/S462D)
Method: protein-binding microarray
Molecule type: double-stranded DNA, one strand shown
Medium: in vitro
Concentration: 940 nM top
Notes: 60-bp whole probe
Together with: salmon DNA 0.4 mg/ml
Reference: random background probes
Reading: higher = stronger binding
Constant ends, left off below: GCCTAGCAC … GTCTTGATTCGCTTGACGCTGCTG
Strand	fitted relative affinity
GACGATCTCAGTATCGATACGTGCTAG	5.41 z-score
GACGGTATGGGACTGGGGACGTGCTAG	-0.318 z-score
TTAGAGCTGGGGTATCGATTAGTGCTA	2.65 z-score
GACGGGTTCCTACTGCTGACGTGCTAG	-0.135 z-score
GACGGTTTCGACTTTCGGGAGGTGCTA	7.66 z-score
TTAGGTTGCGGTATCGGTTAGTGCTAG	5.13 z-score
GACGGTTTCGTTTTCCTGACGTGCTAG	9 z-score
GACTTTTTAGATTTTTTTTCGTGCTAG	1.03 z-score

Block 3
Target: Replicase polyprotein 1ab, polymerase (rep, Severe acute respiratory syndrome coronavirus 2, UniProt P0DTD1)
Observed: enzyme activity
Action: inhibitor
Concentration: 20 µM
SMILES	inhibition
CN1[C@@H](CC(=O)c2ccccc2)CCC[C@H]1C[C@H](O)c1ccccc1	0.13%
COC(=O)C(c1ccccc1)C1CCCCN1 (centres unmarked)	-1.26%
CN(C)CC/C=C1\c2ccccc2CSc2ccccc21	-4.25%
CCC(C)n1ncn(-c2ccc(N3CCN(c4ccc(OC[C@H]5CO[C@](Cn6cncn6)(c6ccc(Cl)cc6Cl)O5)cc4)CC3)cc2)c1=O (some centres unmarked)	1.26%
O=C(c1ccc(F)cc1)C1CCN(CCn2c(=S)[nH]c3ccccc3c2=O)CC1	-6.86%
CC(C)(N)c1cc(C(=O)N[C@@H]2CCc3ccc(Oc4ccnc5c4CCC(=O)N5)cc3C2)cc(C(F)(F)F)c1	3.78%
CC(C)CCNc1ncccc1C(=O)N1CCN(Cc2ccccc2)CC1	-3.46%
CCc1ccc(Cc2ccc3c(c2)[C@]2(OC3)O[C@H](CO)[C@@H](O)[C@H](O)[C@H]2O)cc1	4.96%
N[C@@H](Cc1cc(-c2ccc(Cl)cc2Cl)cc(CP(=O)(O)O)c1O)C(=O)O	8.99%
O=C(CCCCCCCn1cc(-c2cccnc2)nn1)Nc1ccccc1-c1ccccc1	-1.98%
Nc1nc(Nc2ccc(S(N)(=O)=O)cc2)nn1C(=O)c1c(F)cccc1F	-0.76%
COc1ccc(C2C(=O)c3ccccc3C2=O)cc1	4.62%
NC(=O)CN1Cc2ccccc2OC1=O	-4.86%
CN1CCC(=C2c3ccccc3CC(=O)c3sccc32)CC1	-1.7%

Block 4
Target: Sal-like protein 4, full length isoform A (SALL4, Homo sapiens, UniProt Q9UJQ4, residues 1-1053)
Sequence of UniProt Q9UJQ4 (whole entry, looked up): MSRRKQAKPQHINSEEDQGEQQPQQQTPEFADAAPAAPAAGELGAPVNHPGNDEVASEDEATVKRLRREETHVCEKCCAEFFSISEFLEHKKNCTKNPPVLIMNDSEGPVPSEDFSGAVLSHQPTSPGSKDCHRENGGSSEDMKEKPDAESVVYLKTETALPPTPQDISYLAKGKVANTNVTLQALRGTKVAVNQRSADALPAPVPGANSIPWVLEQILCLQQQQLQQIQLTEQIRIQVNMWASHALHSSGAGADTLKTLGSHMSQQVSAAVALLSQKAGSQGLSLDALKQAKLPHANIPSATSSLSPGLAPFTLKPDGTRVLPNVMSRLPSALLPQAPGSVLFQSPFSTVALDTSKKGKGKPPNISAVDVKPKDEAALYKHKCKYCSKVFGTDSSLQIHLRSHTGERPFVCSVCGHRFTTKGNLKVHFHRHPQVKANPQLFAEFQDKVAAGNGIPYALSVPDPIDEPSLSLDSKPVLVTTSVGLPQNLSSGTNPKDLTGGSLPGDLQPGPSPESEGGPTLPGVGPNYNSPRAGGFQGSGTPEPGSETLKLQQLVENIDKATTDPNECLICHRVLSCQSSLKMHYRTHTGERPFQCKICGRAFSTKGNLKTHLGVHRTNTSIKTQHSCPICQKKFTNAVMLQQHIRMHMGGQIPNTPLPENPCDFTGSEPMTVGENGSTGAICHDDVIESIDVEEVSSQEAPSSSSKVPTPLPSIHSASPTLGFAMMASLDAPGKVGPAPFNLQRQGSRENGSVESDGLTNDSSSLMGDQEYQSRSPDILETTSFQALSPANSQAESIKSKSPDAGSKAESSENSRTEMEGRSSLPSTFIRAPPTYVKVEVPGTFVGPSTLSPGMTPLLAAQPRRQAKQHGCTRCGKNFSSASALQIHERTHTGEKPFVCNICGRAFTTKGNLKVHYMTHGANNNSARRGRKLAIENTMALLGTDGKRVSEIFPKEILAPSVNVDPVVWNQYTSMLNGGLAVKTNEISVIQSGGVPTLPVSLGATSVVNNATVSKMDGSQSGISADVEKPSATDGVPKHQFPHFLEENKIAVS
Method: universal PBM
Molecule type: double-stranded DNA, one strand shown
Medium: in vitro
Concentration: 600 nM
Notes: 8-mer, flanks averaged, mean of replicates
Reading: higher = stronger binding
Strand	E-score
CCCAACCG	-0.287
CGTAGACG	-0.202
ACCTCGGA	-0.0783
AGGGACCC	-0.3
TTCTAGAA	-0.0428
ATCTCTTC	0.127
CCCAACAA	-0.0636
CGTCAACA	-0.135

Further values, each from its own experiment
SMILES	cell line	assay	test system	conditions	how to read	quantity	result
CS(=O)(=O)c1ccc(C2=C(c3ccccc3)C(=O)OC2)cc1	HEK-293T	pseudovirus infection, FDA-approved drug library screen	VSV pseudotyped with SARS-CoV-2 spike	10 µM, 16 h	reference: vehicle-treated	GFP-positive cells	98.9%

Some of these lines once more (block 3):
SMILES	inhibition
CCc1ccc(Cc2ccc3c(c2)[C@]2(OC3)O[C@H](CO)[C@@H](O)[C@H](O)[C@H]2O)cc1	4.96%
O=C(CCCCCCCn1cc(-c2cccnc2)nn1)Nc1ccccc1-c1ccccc1	-1.98%
CN(C)CC/C=C1\c2ccccc2CSc2ccccc21	-4.25%
